Results gathered from unrelated publications.
Lines come from different studies, so protocols differ. Several values in a cell are separate wells, animals, samples, runs or records. ± marks the error that the study gave.
Chain of UniProt Q9Y2J8 (whole entry, looked up): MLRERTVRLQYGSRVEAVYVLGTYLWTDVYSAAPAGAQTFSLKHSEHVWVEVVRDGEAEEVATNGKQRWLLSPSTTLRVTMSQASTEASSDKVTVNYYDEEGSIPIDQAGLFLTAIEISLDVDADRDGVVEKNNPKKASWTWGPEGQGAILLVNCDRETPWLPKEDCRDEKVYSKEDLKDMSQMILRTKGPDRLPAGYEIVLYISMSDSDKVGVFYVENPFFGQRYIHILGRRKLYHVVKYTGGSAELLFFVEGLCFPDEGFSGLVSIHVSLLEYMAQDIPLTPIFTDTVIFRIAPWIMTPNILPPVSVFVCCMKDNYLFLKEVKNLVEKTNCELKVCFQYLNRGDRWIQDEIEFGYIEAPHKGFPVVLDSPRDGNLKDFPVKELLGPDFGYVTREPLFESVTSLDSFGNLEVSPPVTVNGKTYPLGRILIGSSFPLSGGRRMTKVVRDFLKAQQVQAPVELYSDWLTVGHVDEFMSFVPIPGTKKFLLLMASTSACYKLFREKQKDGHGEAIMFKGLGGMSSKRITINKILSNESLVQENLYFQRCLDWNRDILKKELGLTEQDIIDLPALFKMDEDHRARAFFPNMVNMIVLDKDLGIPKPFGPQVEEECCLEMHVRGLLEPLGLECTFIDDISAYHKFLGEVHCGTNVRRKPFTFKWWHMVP
Chain of UniProt Q13555 (whole entry, looked up): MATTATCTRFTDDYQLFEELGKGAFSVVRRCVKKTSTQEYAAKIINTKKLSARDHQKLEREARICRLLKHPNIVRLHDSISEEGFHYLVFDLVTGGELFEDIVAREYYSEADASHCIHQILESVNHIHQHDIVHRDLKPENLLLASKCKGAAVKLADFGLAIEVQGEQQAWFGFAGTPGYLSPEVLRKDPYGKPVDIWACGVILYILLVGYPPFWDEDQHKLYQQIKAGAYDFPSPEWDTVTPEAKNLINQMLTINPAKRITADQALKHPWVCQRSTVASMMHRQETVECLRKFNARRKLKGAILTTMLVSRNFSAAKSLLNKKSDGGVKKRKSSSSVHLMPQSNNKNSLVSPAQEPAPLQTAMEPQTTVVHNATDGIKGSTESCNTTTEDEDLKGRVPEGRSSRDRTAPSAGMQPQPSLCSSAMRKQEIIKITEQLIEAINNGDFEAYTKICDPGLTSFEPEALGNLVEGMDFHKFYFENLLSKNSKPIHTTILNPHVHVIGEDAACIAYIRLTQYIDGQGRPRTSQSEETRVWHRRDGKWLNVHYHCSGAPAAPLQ
Chain of UniProt P41145 (whole entry, looked up): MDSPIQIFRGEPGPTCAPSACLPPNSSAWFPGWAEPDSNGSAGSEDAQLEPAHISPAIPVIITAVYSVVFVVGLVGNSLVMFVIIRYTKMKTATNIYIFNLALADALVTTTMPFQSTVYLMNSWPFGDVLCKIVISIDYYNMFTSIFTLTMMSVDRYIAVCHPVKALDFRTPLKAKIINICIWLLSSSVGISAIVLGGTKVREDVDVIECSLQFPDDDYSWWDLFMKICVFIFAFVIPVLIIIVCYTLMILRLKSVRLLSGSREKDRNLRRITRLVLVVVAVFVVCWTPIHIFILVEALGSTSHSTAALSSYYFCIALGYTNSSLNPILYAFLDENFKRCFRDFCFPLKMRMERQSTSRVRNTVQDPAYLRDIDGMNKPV
Chain of UniProt P53779 (whole entry, looked up): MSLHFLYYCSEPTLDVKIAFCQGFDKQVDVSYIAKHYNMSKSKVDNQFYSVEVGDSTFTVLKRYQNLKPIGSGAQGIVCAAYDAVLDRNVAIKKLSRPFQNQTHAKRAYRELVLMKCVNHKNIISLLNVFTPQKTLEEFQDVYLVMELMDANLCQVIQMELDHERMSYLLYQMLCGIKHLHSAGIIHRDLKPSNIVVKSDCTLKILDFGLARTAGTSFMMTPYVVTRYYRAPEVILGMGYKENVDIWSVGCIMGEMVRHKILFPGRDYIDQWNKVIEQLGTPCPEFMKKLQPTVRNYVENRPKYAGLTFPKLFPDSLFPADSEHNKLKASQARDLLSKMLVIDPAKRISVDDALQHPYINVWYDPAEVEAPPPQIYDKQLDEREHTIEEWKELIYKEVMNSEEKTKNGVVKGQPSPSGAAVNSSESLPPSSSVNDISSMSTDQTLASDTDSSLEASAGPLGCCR
Chain of UniProt Q8VD66 (whole entry, looked up): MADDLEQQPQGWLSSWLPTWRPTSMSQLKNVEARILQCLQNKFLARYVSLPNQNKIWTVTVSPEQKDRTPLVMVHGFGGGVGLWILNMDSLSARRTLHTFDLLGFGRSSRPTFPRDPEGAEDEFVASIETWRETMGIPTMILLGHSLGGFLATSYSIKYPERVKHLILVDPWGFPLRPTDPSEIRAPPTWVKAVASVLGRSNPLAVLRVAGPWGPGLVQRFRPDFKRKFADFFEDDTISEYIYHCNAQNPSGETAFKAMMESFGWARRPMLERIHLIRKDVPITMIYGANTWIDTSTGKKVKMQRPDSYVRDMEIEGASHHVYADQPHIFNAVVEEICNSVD
Chain of UniProt P30518 (whole entry, looked up): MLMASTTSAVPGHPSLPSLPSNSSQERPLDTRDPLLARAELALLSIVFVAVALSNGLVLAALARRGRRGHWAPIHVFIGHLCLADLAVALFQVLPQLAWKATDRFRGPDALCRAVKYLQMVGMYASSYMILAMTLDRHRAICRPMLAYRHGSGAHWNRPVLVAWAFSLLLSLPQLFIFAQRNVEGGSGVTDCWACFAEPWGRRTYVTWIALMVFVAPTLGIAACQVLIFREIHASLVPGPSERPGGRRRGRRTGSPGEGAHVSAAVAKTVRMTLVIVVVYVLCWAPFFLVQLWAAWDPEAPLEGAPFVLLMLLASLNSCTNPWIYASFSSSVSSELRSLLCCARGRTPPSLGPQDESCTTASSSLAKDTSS
Chain of UniProt Q15835 (whole entry, looked up): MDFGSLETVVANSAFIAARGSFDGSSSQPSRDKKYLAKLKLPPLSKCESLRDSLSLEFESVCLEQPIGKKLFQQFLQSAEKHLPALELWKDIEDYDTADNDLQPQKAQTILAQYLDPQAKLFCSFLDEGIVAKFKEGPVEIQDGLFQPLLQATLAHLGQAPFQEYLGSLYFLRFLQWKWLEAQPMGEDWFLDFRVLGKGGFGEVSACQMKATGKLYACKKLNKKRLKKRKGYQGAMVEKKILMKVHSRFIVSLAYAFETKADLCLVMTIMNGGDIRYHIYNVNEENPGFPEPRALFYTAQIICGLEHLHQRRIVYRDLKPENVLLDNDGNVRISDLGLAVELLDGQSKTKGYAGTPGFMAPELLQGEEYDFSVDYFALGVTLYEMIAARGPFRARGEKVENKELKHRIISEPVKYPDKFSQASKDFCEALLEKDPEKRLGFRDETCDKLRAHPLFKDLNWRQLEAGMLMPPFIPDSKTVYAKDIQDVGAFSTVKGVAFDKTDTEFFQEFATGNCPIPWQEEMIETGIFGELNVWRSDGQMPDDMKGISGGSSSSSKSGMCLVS
Chain of UniProt P0A988 (whole entry, unmodified, looked up): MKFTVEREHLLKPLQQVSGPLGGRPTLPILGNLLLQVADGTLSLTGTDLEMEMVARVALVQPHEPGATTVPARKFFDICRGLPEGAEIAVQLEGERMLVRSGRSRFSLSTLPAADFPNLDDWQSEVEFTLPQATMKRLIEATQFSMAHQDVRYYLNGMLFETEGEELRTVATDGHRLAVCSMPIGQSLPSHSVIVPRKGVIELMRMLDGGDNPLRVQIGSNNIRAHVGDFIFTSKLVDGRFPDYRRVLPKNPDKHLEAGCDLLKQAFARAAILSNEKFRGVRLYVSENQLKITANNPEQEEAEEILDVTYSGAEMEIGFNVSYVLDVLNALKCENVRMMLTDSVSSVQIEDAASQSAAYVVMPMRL
Chain of UniProt P08510 (whole entry, unmodified, looked up): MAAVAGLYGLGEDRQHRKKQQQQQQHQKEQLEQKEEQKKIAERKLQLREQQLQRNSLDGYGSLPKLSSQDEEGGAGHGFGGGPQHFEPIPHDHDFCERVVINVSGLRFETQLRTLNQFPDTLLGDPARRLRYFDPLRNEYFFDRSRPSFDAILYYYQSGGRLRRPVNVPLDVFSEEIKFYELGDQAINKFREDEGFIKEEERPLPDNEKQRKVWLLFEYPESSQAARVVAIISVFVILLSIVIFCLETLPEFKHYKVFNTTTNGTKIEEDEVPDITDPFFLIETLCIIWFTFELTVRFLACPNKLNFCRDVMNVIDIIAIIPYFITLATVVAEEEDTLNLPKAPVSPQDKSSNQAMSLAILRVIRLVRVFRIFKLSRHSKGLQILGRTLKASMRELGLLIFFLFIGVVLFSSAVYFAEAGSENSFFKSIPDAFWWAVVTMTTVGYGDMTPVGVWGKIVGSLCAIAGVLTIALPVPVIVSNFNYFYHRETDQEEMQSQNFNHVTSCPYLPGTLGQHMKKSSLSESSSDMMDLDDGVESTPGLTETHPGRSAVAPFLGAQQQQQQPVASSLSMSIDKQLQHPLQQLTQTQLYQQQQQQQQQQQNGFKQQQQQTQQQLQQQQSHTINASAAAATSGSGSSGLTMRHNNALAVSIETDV

`CSCC[C@@H](N)C(=O)N[C@H](C)C(=O)N[C@H](C)C(=O)N[C@@H](C(=O)N[C@H](C)C(=O)NCC(=O)N[C@H](CC(C)C)C(=O)N[C@H](Cc1ccc(O)cc1)C(=O)NCC(=O)N[C@H](CC(C)C)C(=O)NCC(=O)N[C@H](CCC(=O)O)C(=O)N[C@H](CC(=O)O)C(=O)N[C@H](CCCNC(=N)N)C(=O)N[C@H](CCC(N)=O)C(=O)N[C@H](Cc1c[nH]cn1)C(=O)N[C@H](CCCNC(=N)N)C(=O)N[C@H](CCCCN)C(=O)N[C@H](CCCCN)C(=O)N[C@H](CCC(N)=O)C(N)=O)C(C)C` gave a Hill coefficient of 0.86 (Sh, DEL6-46 (Drosophila melanogaster, UniProt P08510); ion current, blocker, inside-out patch clamp; +70 mV).
`CN(C)[C@H]1C[C@@]23CC[C@@]4(O2)C(=CC[C@]2(C)[C@@H](c5ccc6ccncc6c5)CC[C@H]24)C=C3[C@@H](O)[C@@H]1O` gave an inhibition of 14.9% (CAMK2G (Homo sapiens, UniProt Q13555); ATP probe labelling, inhibitor, KiNativ profiling; 1 µM).
`N[C@H](C(=O)N1CCCC1)C1CCN(c2nccc3c(-c4ncc(Cl)cc4Cl)cccc23)CC1` gave a kcat of 0.336 s⁻¹ and 0.379 s⁻¹ (PADI2 (Homo sapiens, UniProt Q9Y2J8); enzyme activity; 0.0983 µM, low-affinity site, together with: Ca2+ 0.25 mM).
`O=C(Cc1ccc(Cl)c(Cl)c1)N1CCN[C@@H]2COC[C@H](N3CCCC3)[C@H]21` (relative stereo) has an Emax of 92% (OPRK1 (Homo sapiens, UniProt P41145); agonist; 0.3333 h).
For `CC(=O)N[C@@H](CCC(N)=O)C(=O)N[C@@H](CC1CCCCC1)C(=O)N[C@@H](CNC(=O)CCl)C(=O)N[C@@H](CC(C)C)C(=O)N[C@@H](Cc1ccccc1)C(=O)O`, the ΔH was -11.3 kcal/mol (Beta sliding clamp (Escherichia coli, UniProt P0A988); binding, isothermal titration calorimetry; 37 °C).
With `OB(O)c1cnn(-c2cccc(Cl)c2)c1` the selectivity ratio was 8 (Chymotrypsinogen A (Bos taurus, UniProt P00766); pNA substrate hydrolysis; reference: Ki protease over Ki AmpC).
`Cc1ccc(N2CC3CCC(C2)N3C)cc1C(=O)N[C@H](C)c1cc(-c2cnn(C)c2)nc2ccccc12` has a remaining activity of 102% (Cathepsin B (CTSB, Homo sapiens, UniProt P07858); enzyme activity; 10 µM).
With `CS(C)(=O)=Nc1ccc(-c2ccc(-c3nc4cc(O[C@@H]5CO[C@H]6[C@@H]5OC[C@H]6O)[nH]c4cc3F)cc2)cc1` the inhibition was -5% (AVPR2 (Homo sapiens, UniProt P30518); calcium signal, antagonist; 10 µM).
`O=C(N[C@@H]1c2ccccc2C[C@H]1N1CCCC1)c1ccc(-c2ccnc3[nH]ccc23)nc1` gave a remaining binding of 25% (GRK1 (Homo sapiens, UniProt Q15835); binding, competition with immobilised ligand; 3 µM).
For `CC(C)[C@H]1NC(=O)C[C@H]2/C=C/CCSSC[C@@H](NC1=O)C(=O)N[C@H](Cc1cccc3ccccc13)C(=O)NCC(=O)O2`, the inhibition was -0.4% (PRKD2 (Homo sapiens, UniProt Q9BZL6); enzyme activity, inhibitor; 10 µM).
The specific binding of `O=C(O)c1ccc(-c2nc(-c3ccccc3Cl)c3sccn23)cc1` is reported as 88.2% and 90.9% (kappa opioid receptor; radioligand binding; 10 µM; reference: control).
With `CC(C)CC(O)(CC(C)C)c1cn(C(=O)N2CCCC2)nn1` the activity ratio-of-ratios was 0.54 ((Lyso)-N-acylphosphatidylethanolamine lipase (Abhd4, Mus musculus, UniProt Q8VD66); probe labelling, inhibitor, refers to: Abhd4; mouse, brain; i.p., 0.8 mg/kg, 4 h, protein level; reference: treated over vehicle mice, lower = stronger inhibition).
`CCCCC/C=C\C/C=C\C/C=C\C/C=C\CCCC(=O)NCCc1ccc(O)c(O)c1` has a Hill coefficient of 1.28 ± 0.1 (Trpv1 (Mus musculus, UniProt Q704Y3, S513A); ion current, agonist, whole-cell patch clamp).
The remaining activity of `O=C1NC(=O)c2c1c1cc(F)c[n+]3c1c1c2c2cc(O)ccc2[n]1[Ru-4]312([N]=C=S)[S+]3CC[S+]1CC[S+]2CC3` (centres unmarked) is reported as 95% (MAPK10 (Homo sapiens, UniProt P53779); enzyme activity; 100 nM, human enzyme, together with: 10 µM ATP; reference: untreated).

Repeated from above:
With `CS(C)(=O)=Nc1ccc(-c2ccc(-c3nc4cc(O[C@@H]5CO[C@H]6[C@@H]5OC[C@H]6O)[nH]c4cc3F)cc2)cc1` the inhibition was -5% (AVPR2 (Homo sapiens, UniProt P30518); calcium signal, antagonist; 10 µM).
`O=C(N[C@@H]1c2ccccc2C[C@H]1N1CCCC1)c1ccc(-c2ccnc3[nH]ccc23)nc1` gave a remaining binding of 25% (GRK1 (Homo sapiens, UniProt Q15835); binding, competition with immobilised ligand; 3 µM).
